Measurements pooled from the literature.
Protocols differ between the studies behind these lines.

SMILES	species	medium	route	dose	setting	half-life [min]
C/C(=N\OCCCN1CCCCC1)c1ccc(C(F)(F)F)cc1	mouse	plasma	intravenous	5 mg/kg		271
CCc1nn(C)c2nc(-c3ccc(C(=O)O)cc3)nc(NCc3ccccc3)c12	male CD-1 mouse	plasma	intravenous	1 mg/kg		~60
CC(C)[C@H]1NC(=O)C[C@H]2/C=C/CCSSC[C@@H](NC1=O)C(=O)N[C@H](Cc1cccc3ccccc13)C(=O)NCC(=O)O2	nude mouse	blood	intravenous	4 mg/kg		18
c1ccc(C2(CCNC3CCC4(SCCS4)c4ccccc43)CCOC3(CCCC3)C2)nc1 (centres unmarked)	male CD-1 mouse	plasma	subcutaneous	0.1 mg/kg		40.2
CN(CC(=O)N(Cc1ccc(C2CCCCC2)cc1)c1ccc(C(=O)O)cc1)S(=O)(=O)c1c(F)c(F)c(F)c(F)c1F	mouse	plasma	intraperitoneal	20 mg/kg		10
O=c1cc(-c2ccccc2)oc2c(Br)c(O)c(O)c(O)c12	C57BL/6 mouse	plasma	oral	250 mg/kg	single dose	330
CS(C)(=O)=Nc1ccc(-c2ccc(-c3nc4cc(O[C@@H]5CO[C@H]6[C@@H]5OC[C@H]6O)[nH]c4cc3F)cc2)cc1	female C57BL/6 mouse	plasma	intravenous	3 mg/kg		186
CCCCCCCC(=O)OC[C@H](NC(=O)[C@H](CO)NC(=O)CN)C(=O)N[C@@H](Cc1ccccc1)C(=O)N[C@@H](CC(C)C)C(=O)N[C@@H](CO)C(=O)N1CCC[C@H]1C(=O)N[C@@H](CCC(=O)O)C(=O)N[C@@H](Cc1cnc[nH]1)C(=O)N[C@@H](CCC(N)=O)C(=O)N[C@@H](CCCNC(=N)N)C(=O)N[C@H](C(=O)N[C@@H](CCC(N)=O)C(=O)N[C@@H](CCC(N)=O)C(=O)N[C@@H](CCCNC(=N)N)C(=O)N[C@@H](CCCCN)C(=O)N[C@@H](CCC(=O)O)C(=O)N[C@@H](CO)C(=O)N[C@@H](CCCCN)C(=O)N[C@@H](CCCCN)C(=O)N1CCC[C@H]1C(=O)N1CCC[C@H]1C(=O)N[C@@H](C)C(=O)N[C@@H](CCCCN)C(=O)N[C@@H](CC(C)C)C(=O)N[C@@H](CCC(N)=O)C(=O)N1CCC[C@H]1C(=O)N[C@@H](CCCNC(=N)N)C(=O)O)C(C)C	mouse	plasma	intraperitoneal	7.2 mg/kg		14.8

For quick reference, copied from above:
SMILES	species	medium	route	dose	setting	half-life [min]
CCc1nn(C)c2nc(-c3ccc(C(=O)O)cc3)nc(NCc3ccccc3)c12	male CD-1 mouse	plasma	intravenous	1 mg/kg		~60
